Measured values pooled from the literature.
A part holds a random share of what one study measured. Changes are numbered by the printed parent chain.
Chain of UniProt P42680 (whole entry, looked up): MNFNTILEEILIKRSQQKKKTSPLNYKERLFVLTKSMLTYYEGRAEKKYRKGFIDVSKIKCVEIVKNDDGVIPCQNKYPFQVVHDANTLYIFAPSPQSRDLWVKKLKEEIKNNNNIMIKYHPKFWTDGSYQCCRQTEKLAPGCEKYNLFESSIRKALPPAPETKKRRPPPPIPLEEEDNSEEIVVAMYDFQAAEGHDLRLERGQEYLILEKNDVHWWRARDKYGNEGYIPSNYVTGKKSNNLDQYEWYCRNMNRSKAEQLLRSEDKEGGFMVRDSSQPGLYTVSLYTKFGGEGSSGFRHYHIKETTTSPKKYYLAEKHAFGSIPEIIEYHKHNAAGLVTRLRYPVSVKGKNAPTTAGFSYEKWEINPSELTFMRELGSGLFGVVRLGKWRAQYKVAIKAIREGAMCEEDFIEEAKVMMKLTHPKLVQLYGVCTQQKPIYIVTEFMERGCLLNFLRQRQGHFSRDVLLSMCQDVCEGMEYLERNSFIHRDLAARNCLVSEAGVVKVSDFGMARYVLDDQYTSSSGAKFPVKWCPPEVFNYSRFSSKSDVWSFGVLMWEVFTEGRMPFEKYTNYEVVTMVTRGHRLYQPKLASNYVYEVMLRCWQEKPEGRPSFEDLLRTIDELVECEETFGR
Chain of UniProt P42679 (whole entry, looked up): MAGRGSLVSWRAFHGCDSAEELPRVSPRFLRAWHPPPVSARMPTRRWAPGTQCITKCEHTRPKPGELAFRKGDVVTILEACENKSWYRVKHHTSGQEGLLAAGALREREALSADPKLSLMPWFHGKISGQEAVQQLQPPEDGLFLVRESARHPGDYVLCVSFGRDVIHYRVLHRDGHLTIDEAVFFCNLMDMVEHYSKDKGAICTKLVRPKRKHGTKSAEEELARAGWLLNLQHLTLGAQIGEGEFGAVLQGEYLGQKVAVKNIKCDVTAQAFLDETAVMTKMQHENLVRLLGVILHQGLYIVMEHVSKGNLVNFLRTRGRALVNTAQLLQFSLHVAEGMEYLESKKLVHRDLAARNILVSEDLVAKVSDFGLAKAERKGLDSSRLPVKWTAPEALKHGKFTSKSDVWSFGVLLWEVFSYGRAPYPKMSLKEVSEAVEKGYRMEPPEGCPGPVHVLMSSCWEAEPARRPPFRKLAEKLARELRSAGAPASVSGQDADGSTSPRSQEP
Chain of UniProt Q9HCP0 (whole entry, looked up): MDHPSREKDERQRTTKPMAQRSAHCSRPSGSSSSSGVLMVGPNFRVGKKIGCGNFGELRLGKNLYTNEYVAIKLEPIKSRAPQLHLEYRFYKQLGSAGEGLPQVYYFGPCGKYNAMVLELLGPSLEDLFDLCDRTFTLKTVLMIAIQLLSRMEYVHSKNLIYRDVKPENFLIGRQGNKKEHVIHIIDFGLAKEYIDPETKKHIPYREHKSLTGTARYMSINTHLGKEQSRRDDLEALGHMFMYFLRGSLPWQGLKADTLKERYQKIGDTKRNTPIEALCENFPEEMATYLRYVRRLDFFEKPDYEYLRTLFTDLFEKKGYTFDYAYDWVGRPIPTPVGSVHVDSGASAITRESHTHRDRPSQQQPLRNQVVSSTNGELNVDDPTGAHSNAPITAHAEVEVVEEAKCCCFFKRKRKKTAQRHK
Chain of UniProt O43683 (whole entry, looked up): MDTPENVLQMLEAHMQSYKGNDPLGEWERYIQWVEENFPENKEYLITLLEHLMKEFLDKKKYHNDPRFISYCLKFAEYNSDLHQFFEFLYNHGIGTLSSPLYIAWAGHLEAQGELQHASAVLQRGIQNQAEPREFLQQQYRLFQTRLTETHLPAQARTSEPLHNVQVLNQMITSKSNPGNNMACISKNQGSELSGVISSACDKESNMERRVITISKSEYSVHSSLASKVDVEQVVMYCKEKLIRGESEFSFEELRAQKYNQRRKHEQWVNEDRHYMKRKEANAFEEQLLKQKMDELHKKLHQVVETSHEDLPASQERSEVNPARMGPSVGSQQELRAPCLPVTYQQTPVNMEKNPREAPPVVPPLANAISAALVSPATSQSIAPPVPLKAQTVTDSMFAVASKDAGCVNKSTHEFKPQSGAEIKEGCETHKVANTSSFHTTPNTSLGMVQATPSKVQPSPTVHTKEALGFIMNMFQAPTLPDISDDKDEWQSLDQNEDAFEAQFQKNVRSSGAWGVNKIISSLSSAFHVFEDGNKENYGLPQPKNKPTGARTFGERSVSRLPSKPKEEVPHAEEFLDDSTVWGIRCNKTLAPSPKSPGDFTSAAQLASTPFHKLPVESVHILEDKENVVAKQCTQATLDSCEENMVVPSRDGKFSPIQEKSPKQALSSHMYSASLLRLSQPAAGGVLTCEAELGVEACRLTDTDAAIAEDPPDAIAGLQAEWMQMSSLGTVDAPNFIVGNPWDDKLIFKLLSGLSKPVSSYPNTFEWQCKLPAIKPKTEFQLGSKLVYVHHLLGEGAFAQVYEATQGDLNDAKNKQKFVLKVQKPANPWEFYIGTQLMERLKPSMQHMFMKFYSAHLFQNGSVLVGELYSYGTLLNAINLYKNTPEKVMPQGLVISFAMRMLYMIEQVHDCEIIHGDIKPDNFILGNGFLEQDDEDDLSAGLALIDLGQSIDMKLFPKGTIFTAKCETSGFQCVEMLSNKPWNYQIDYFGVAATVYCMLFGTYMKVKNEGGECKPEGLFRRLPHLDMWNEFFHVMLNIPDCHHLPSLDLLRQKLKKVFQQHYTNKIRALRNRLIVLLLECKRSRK
Chain of UniProt P42338 (whole entry, looked up): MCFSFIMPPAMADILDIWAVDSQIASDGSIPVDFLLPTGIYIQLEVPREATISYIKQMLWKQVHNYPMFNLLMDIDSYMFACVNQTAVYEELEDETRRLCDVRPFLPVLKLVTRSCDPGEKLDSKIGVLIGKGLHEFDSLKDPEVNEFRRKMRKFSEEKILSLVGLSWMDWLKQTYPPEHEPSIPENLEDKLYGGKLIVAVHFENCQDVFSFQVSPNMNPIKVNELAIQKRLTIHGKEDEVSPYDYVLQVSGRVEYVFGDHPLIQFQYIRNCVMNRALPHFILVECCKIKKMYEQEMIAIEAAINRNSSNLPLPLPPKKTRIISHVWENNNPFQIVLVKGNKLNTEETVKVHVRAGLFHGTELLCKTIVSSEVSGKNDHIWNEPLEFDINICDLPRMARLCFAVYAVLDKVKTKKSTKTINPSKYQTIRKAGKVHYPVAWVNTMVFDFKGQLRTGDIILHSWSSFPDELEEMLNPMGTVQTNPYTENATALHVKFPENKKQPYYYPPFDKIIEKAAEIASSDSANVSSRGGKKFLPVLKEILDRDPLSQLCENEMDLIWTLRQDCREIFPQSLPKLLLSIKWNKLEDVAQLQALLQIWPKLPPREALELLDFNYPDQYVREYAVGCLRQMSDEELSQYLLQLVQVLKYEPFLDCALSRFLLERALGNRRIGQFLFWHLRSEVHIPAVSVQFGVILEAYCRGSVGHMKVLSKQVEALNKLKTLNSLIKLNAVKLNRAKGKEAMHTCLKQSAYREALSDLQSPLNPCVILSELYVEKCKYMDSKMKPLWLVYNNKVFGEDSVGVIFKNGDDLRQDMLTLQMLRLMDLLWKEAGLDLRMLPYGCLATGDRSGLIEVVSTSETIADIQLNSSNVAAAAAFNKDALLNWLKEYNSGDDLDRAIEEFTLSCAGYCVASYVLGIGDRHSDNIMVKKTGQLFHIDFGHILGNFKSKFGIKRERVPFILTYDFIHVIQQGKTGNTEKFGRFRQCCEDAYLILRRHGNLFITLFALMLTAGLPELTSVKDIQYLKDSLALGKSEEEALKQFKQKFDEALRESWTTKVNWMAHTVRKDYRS
Chain of UniProt O43353 (whole entry, looked up): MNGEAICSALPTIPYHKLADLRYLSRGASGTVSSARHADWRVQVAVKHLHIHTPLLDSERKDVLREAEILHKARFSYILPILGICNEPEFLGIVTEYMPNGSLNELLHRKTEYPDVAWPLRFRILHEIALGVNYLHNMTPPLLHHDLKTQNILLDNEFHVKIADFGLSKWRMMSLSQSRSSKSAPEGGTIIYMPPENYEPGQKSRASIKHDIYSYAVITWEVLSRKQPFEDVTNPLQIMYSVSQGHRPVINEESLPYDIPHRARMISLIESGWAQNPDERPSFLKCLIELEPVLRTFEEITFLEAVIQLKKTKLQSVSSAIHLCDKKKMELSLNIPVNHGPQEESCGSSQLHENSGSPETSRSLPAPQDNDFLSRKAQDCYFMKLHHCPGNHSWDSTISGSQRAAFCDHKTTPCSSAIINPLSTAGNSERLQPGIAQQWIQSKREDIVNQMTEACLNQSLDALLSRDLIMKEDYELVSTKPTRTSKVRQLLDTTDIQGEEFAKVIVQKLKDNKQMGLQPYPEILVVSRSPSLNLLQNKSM

Series 1 — target: ATF3, bZIP domain (human); technique: DHFR protein complementation; sample: yeast; baseline: wild-type JUN-FOS pair; direction: higher = stronger binding; measurement: binding fitness
Setting: single substitutions, most at no-binding floor
Parent: JUN, bZIP domain (human); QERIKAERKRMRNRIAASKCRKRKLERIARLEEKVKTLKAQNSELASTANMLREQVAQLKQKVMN; partner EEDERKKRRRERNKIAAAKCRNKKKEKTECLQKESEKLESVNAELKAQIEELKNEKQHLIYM
L52T: -1.01 natural log
L59G: -1.37 natural log
K34S: -0.324 natural log
K39W: -0.559 natural log
A46I: -0.061 natural log
A46Q: -0.0668 natural log
S47A: 0.000476 natural log
T37R: -0.0322 natural log

Series 2 — read-out: enzyme activity; mode: inhibitor; concentration: 0.5 µM; baseline: control; measurement: remaining activity
Target: NUAK family SNF1-like kinase 1 (NUAK1, Homo sapiens, UniProt O60285)
Chain of UniProt O60285 (whole entry, looked up): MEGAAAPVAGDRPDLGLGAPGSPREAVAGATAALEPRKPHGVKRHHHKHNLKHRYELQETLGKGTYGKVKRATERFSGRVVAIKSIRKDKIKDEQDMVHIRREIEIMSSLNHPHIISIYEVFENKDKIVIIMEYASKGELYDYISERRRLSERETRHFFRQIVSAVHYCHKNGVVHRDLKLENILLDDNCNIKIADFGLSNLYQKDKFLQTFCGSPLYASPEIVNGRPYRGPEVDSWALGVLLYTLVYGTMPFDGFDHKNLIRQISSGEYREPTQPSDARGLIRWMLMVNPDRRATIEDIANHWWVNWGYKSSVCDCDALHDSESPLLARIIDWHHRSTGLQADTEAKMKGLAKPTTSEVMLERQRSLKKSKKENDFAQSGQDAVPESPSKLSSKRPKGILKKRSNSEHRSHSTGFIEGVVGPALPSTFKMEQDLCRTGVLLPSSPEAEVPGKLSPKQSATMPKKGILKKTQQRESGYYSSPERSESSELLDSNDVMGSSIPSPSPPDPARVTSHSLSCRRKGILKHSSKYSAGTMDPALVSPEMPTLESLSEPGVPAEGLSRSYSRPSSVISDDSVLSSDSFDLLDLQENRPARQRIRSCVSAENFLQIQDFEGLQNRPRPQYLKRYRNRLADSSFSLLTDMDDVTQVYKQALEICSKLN
COc1cc2ncnc(Nc3ccc(Oc4ccccc4)cc3)c2cc1OC: 105%
COc1ccc(CNC(=O)Nc2ncc([N+](=O)[O-])s2)cc1: 99.7%
COc1cc2ncnc(Nc3ccc(F)c(Cl)c3)c2cc1OCCCN1CCOCC1: 99.1%
O=C(CCCc1ccc(-c2ccccc2F)cc1)Nc1ccc(O)cc1: 96.4%
CCOC(=O)c1c(C)[nH]c(/C=C2\C(=O)Nc3ccccc32)c1C: 62.3%
Oc1ccc(-c2nc(-c3ccncc3)c(-c3ccc(F)cc3)[nH]2)cc1: 97.3%
Cn1sc(=O)n(Cc2ccccc2)c1=O: 102%
Cc1ccc(Nc2nccc(N(C)c3ccc4c(C)n(C)nc4c3)n2)cc1S(N)(=O)=O: 53.4%
CNC(=O)c1cc(Oc2ccc(NC(=O)Nc3ccc(Cl)c(C(F)(F)F)c3)cc2)ccn1: 103%
Nc1ccc2ncnc(NCCc3ccc(Oc4ccccc4)cc3)c2c1: 94.7%
COc1ccc(C(=O)Nc2sc3c(c2C(N)=O)CCCC3)cc1OC: 81.8%
COc1ccc(OC)c2c(=S)c3ccccc3[nH]c12: 99.3%
OCC(O)CCON=C1C(c2c(O)[nH]c3ccccc23)=Nc2ccccc21 (stereo not shown): 2.81%
O=C(Nc1cccc(Nc2cc(Nc3cccc(C(F)(F)F)c3)ncn2)c1)C1CC1: 102%

Series 3 — technique: competition with immobilised ligand; concentration: 1 µM; measurement: remaining binding
Structure (SMILES): CNC(=O)Nc1ccc2c(c1)CC[C@@]21OC(=O)N(CC(=O)N(Cc2ccc(F)cc2)[C@@H](C)C(F)(F)F)C1=O
Megakaryocyte-associated tyrosine-protein kinase (MATK, Homo sapiens, UniProt P42679); cell-free assay: 71%
Casein kinase I isoform gamma-1 (CSNK1G1, Homo sapiens, UniProt Q9HCP0); cell-free assay: 94%
Angiopoietin-1 receptor (TEK, Homo sapiens, UniProt Q02763); cell-free assay: 87%
Serine/threonine-protein kinase PRP4 homolog (PRPF4B, Homo sapiens, UniProt Q13523); cell-free assay: 86%
Phosphatidylinositol 4,5-bisphosphate 3-kinase catalytic subunit alpha isoform (PIK3CA, Homo sapiens, UniProt P42336, E545A); cell-free assay: 91%
Phosphatidylinositol 4-kinase beta (PI4KB, Homo sapiens, UniProt Q9UBF8); cell-free assay: 74%
Mitotic checkpoint serine/threonine-protein kinase BUB1 (BUB1, Homo sapiens, UniProt O43683); cell-free assay: 66%
Tyrosine-protein kinase ABL1, non-phosphorylated (ABL1, Homo sapiens, UniProt P00519, F317I); cell-free assay: 71%
Tyrosine-protein kinase Tec (TEC, Homo sapiens, UniProt P42680); binding: 90%
Serine/threonine-protein kinase 38-like (STK38L, Homo sapiens, UniProt Q9Y2H1); binding: 66%
Tyrosine-protein kinase Fes/Fps (FES, Homo sapiens, UniProt P07332); cell-free assay: 94%
Serine/threonine-protein kinase PLK3 (PLK3, Homo sapiens, UniProt Q9H4B4); cell-free assay: 86%
Phosphatidylinositol 4,5-bisphosphate 3-kinase catalytic subunit beta isoform (PIK3CB, Homo sapiens, UniProt P42338); cell-free assay: 94%
ALK tyrosine kinase receptor (ALK, Homo sapiens, UniProt Q9UM73); cell-free assay: 68%
Tyrosine-protein kinase Mer (MERTK, Homo sapiens, UniProt Q12866); cell-free assay: 82%
Cyclin-dependent kinase 11B (CDK11B, Homo sapiens, UniProt P21127); cell-free assay: 84%
Receptor-interacting serine/threonine-protein kinase 2 (RIPK2, Homo sapiens, UniProt O43353); cell-free assay: 100%
Receptor-type tyrosine-protein kinase FLT3 (FLT3, Homo sapiens, UniProt P36888, R834Q); cell-free assay: 92%
cAMP-dependent protein kinase catalytic subunit alpha (PRKACA, Homo sapiens, UniProt P17612); cell-free assay: 100%
Ankyrin repeat and protein kinase domain-containing protein 1 (ANKK1, Homo sapiens, UniProt Q8NFD2); cell-free assay: 81%
Tyrosine-protein kinase SYK (SYK, Homo sapiens, UniProt P43405); cell-free assay: 70%
Calcium/calmodulin-dependent protein kinase type 1B (PNCK, Homo sapiens, UniProt Q6P2M8); cell-free assay: 100%

Series 4 — technique: universal PBM; form: double-stranded DNA, one strand shown; sample: in vitro; concentration: not given; direction: higher = stronger binding; measurement: E-score
Target: Sal-like protein 4, full length isoform B (SALL4, Homo sapiens, UniProt Q9UJQ4-2, residues 1-616)
Setting: 8-mer, flanks averaged, mean of replicates
Residues (chain): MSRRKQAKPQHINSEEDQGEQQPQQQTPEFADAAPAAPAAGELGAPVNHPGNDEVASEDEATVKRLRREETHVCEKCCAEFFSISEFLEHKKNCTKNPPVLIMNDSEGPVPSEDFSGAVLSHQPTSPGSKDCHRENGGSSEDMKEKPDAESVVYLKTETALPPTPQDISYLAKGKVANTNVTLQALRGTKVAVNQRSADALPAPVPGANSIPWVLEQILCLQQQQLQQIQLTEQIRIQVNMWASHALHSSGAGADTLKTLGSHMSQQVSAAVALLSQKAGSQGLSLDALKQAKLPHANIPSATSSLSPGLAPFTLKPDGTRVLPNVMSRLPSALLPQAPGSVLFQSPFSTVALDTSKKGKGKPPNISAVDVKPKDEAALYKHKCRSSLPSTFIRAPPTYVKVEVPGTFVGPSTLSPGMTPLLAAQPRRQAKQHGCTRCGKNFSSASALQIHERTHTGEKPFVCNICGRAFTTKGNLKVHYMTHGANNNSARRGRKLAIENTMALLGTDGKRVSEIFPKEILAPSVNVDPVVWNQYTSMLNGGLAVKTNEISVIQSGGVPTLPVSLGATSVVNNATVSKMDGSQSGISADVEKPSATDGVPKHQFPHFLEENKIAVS
GAGCGGGC: -0.345
ATTAAGCC: 0.179
CTGCCCAC: -0.176
CACGCTTA: 0.101
CTCAGACC: -0.213
CTATTGGA: 0.165
CTTAATTA: 0.327
GTTAGCCA: -0.124

Repeated from above (series 2):
O=C(Nc1cccc(Nc2cc(Nc3cccc(C(F)(F)F)c3)ncn2)c1)C1CC1: 102%
COc1ccc(C(=O)Nc2sc3c(c2C(N)=O)CCCC3)cc1OC: 81.8%
Oc1ccc(-c2nc(-c3ccncc3)c(-c3ccc(F)cc3)[nH]2)cc1: 97.3%
COc1ccc(OC)c2c(=S)c3ccccc3[nH]c12: 99.3%
COc1cc2ncnc(Nc3ccc(F)c(Cl)c3)c2cc1OCCCN1CCOCC1: 99.1%
Nc1ccc2ncnc(NCCc3ccc(Oc4ccccc4)cc3)c2c1: 94.7%
Cn1sc(=O)n(Cc2ccccc2)c1=O: 102%
COc1ccc(CNC(=O)Nc2ncc([N+](=O)[O-])s2)cc1: 99.7%
Cc1ccc(Nc2nccc(N(C)c3ccc4c(C)n(C)nc4c3)n2)cc1S(N)(=O)=O: 53.4%
